Measured values from different studies.
Lines come from different studies, so protocols differ. “And” joins repeats or separate records; there may be more than shown. ± gives the spread as reported.

Compound | assay | test system | setting | scale | quantity | value
CCCC[C@@H]1NC(=O)[C@@H](NC(=O)[C@H](CCC(=O)O)NC(=O)CNC(=O)CN2CCN(CC(=O)O)CCN(CC(=O)O)CCN(CC(=O)O)CC2)CCCCNC(=O)C[C@@H](C(N)=O)NC(=O)[C@H](C(C)C)NC(=O)[C@@H]2CCCN2C(=O)[C@H](CCCNC(=N)N)NC(=O)CNC(=O)[C@H](Cc2c[nH]c3ccccc23)NC(=O)[C@H](CCCNC(=N)N)NC(=O)[C@@H](Cc2ccccc2)NC(=O)[C@H](Cc2c[nH]cn2)NC(=O)[C@H](CCC(=O)O)NC1=O [indium-111 labelled] | – | normal C57 mice, lung | intravenous, 0.037 MBq, 4 h | – | tissue uptake | 0.05 ± 0.05 %ID/g
CCc1c(CO)c(CO)c2n1Cc1c(c3ccccc3n1C)C2 | – | male Sprague-Dawley rat, whole blood | intravenous, 10 mg/kg | – | Vss | 1.46 ± 0.29 L/kg
C[C@]12CC[C@@H]3c4ccc(O)cc4CC[C@H]3[C@@H]1C[C@@H](O)[C@@H]2O | GC-MS | breast cancer women on NSAI, serum | vaginal, 0.03 mg, 24 h, day 0 | – | median serum concentration | 0 ng/mL
O=C(O)Cc1ccccc1Nc1c(Cl)cc(F)cc1Cl | glucuronidation | human liver microsomes | 30 min, with: UDPGA | – | remaining compound | 43 ± 0.8%
O=C(Cc1cccc(OC(F)(F)F)c1)Nc1ccc(CCCCc2nnc(NC(=O)Cc3ccccn3)s2)nn1 | – | human patients, plasma | oral, 150 mg three times daily fasted, cycle 1 day 15 steady state | – | Cmin | 355 ng/mL
CC[C@H](C)[C@H](NC(=O)[C@H](Cc1ccccc1)NC(=O)[C@H](CC(=O)O)NC(=O)[C@H](CCCNC(=N)N)NC(=O)[C@H](C)NC(=O)[C@H](C)NC(=O)[C@H](CC(C)C)NC(=O)[C@H](CC(N)=O)NC(=O)[C@H](CC(=O)O)NC(=O)[C@H](CC(C)C)NC(=O)[C@@H](NC(=O)[C@@H](NC(=O)[C@H](CC(N)=O)NC(=O)[C@H](CCSC)NC(=O)[C@H](CCC(=O)O)NC(=O)[C@H](CC(=O)O)NC(=O)[C@H](CO)NC(=O)[C@H](Cc1ccccc1)NC(=O)[C@H](CO)NC(=O)CNC(=O)[C@H](CC(=O)O)NC(=O)CNC(=O)[C@@H](N)Cc1c[nH]cn1)[C@@H](C)O)[C@@H](C)CC)C(=O)N[C@@H](CC(N)=O)C(=O)N[C@@H](Cc1c[nH]c2ccccc12)C(=O)N[C@@H](CC(C)C)C(=O)N[C@H](C(=O)N[C@@H](CCC(N)=O)C(=O)N[C@H](C(=O)N[C@@H](CCCCN)C(=O)N[C@H](C(=O)N[C@H](C(=O)N[C@@H](CC(=O)O)C(=O)O)[C@@H](C)O)[C@@H](C)CC)[C@@H](C)O)[C@@H](C)CC | – | Japanese patients, moderate renal impairment | subcutaneous, 0.05 mg/kg | reference: normal renal function | CL/F reduction | 37%
CN(C)C(=O)c1cc2cnc(Nc3ccc(N4CCNCC4)cn3)nc2n1C1CCCC1 | LC-MS/MS | human, enhancing tumour tissue | oral, 600 mg once daily for 14 days, 4 to 8 h after last dose | – | total concentration | 23.5 nmol/g and 29.1 nmol/g and 33.5 nmol/g and 33.9 nmol/g
[2H]C([2H])([2H])Oc1cc2c(cc1OC([2H])([2H])[2H])C1CC(=O)C(CC(C)C)CN1CC2 (stereo not drawn) | item: β-HTBZ | human, fasted | oral, 15 mg single dose | reference: tetrabenazine 25 mg fasted | geometric mean ratio Cmax | 36.8%
CNC(=O)c1ccc(-c2cnc3ncc(Cc4ccc5ncccc5c4)n3n2)cc1F | – | human mild hepatic impairment | oral, 200 mg single dose, adjusted geometric mean | – | AUC(0-inf) | 4790 ng·h/mL
CNC(=O)c1cc(Oc2ccc(NC(=O)Nc3ccc(Cl)c(C(F)(F)F)c3)cc2)ccn1 | LC-MS/MS | nude mice, HepG2 subcutaneous tumour, tumour | intratumoral, 20 µL per tumour, miR-140-3p plus PXR mutant | – | t1/2 | 26.4 ± 7.87 h
Cl.NCCc1c[nH]c(=S)n1[C@H]1COc2c(F)cc(F)cc2C1 | – | healthy young male human, plasma | oral, 25 to 600 mg | reference: NAT2 slow over rapid acetylators | exposure ratio | 1.5 to 6.7
CSc1cc(C)nc(SC)c1NC(=O)CN1CCN(CCSc2nc3ccccc3[nH]2)CC1.Cl | – | CD-1 mouse, female, cerebrum | intranasal, 32.4 µg/10 µL, 7 days repeated | – | half-life | 0.26 ± 0.0717 h
CC(C)=CCC[C@](C)(O[C@@H]1O[C@H](CO)[C@@H](O)[C@H](O)[C@H]1O)[C@H]1CC[C@]2(C)[C@@H]1[C@H](O)C[C@@H]1[C@@]3(C)CC[C@H](O)C(C)(C)[C@@H]3[C@@H](O[C@@H]3O[C@H](CO)[C@@H](O)[C@H](O)[C@H]3O[C@@H]3O[C@@H](C)[C@H](O)[C@@H](O)[C@H]3O)C[C@]12C | – | Sprague Dawley rat, male, plasma | oral, 45 mg/kg, pure ginsenoside mixture in water | – | CL/F | 388 ± 108 mL/min/kg
COc1cc(/C=C/C(=O)CC(=O)/C=C/c2ccc(O)c(OC)c2)ccc1O | I-125 label | C57BL/6J mouse, cerebral cortex | intranasal vs intraperitoneal, 10 µg/mouse IN, 100 µg/mouse IP, 4 h | reference: intranasal over intraperitoneal | brain uptake ratio | 5.46
Cc1nc2cccc(OCC(C)(C)C(=O)NC(C)C)c2c(N)c1C(=O)O | – | Sprague-Dawley rat both sexes, plasma | dietary, 100 mg/kg/day, day 90 | – | Tmax | 7.5 h
O=C(c1ccc2ncc(-c3ccc4ncccc4c3)nc2c1)N1CCCCC1 | – | ICR/CD-1 mouse, female, liver S9 | 2 µM, pH 7.5 | – | half-life | 2.07 h
CC1=C2C[C@H]3[C@@H](CC[C@@H]4C[C@H](NS(C)(=O)=O)CC[C@@]43C)[C@@H]2CC[C@@]2(C1)O[C@@H]1C[C@H](C)CN[C@H]1[C@H]2C | – | patients, plasma | oral, 60 mg daily, day 22, cycle 1 | – | Tmax | 5.08 h
CC(=O)N1CCC[C@H]1C(=O)N[C@@H](CCCNC(=N)N)C(=O)N[C@H](C(=O)N[C@@H](CC(=O)O)C(=O)N[C@H](C(=O)N[C@@H](CCCNC(=N)N)C(=O)N[C@H](C(=O)N[C@@H](CC(=O)O)C(=O)N[C@H](C(N)=O)C(C)C)C(C)C)C(C)C)C(C)C | rotational rheometry | 2% w/v aqueous solution | shear rate range 1-1000 s^-1 | – | viscosity | 1550 ± 49.5 Pa·s

Compound | assay | test system | setting | scale | quantity | value
C[C@]12CC[C@@H]3c4ccc(O)cc4C[C@@H](CCCCCCCCC[S+]([O-])CCCC(F)(F)C(F)(F)F)[C@H]3[C@@H]1CC[C@@H]2O (stereo partly drawn) | – | patients, plasma | intramuscular, 500 mg, inavolisib palbociclib fulvestrant arm | – | steady-state Cmin | 13.3 ng/mL
CC1(C)Oc2cc3oc(=O)ccc3cc2C[C@@H]1O | – | male CD-1 mouse, plasma | oral gavage, 80 mg/kg daily, 4 weeks | – | plasma ALP activity | 44.2 ± 6.1 U/L
O=C(CCc1ccccc1)c1ccccc1OCC(O)CN1CCN(C(c2ccccc2)c2ccccc2)CC1 (stereo not drawn) | metabolic stability | human, liver microsomes | 20 µM, pH 7.4 | – | scaled CLint | 13.6 mL/min/kg
CC(=O)N[C@H](CSSC[C@H](N)C(=O)O)C(=O)N[C@H](C)C(=O)N[C@H](CCCNC(=N)N)C(=O)N[C@H](CCCNC(=N)N)C(=O)N[C@H](CCCNC(=N)N)C(=O)N[C@H](C)C(=O)N[C@H](CCCNC(=N)N)C(N)=O | in vitro hemodialysis | buffered aqueous solution | – | – | hemodialysis rate constant kAB | 0.118 min⁻¹
CC(C)C[C@H](NC(=O)[C@H](CCCNC(=N)N)NC(=O)[C@H](CC(N)=O)NC(=O)[C@H](CC(=O)O)NC(=O)[C@H](CCCNC(=N)N)NC(=O)CNC(=O)CNC(=O)CNC(=S)Nc1ccc(C[C@H]2CN(CC(=O)O)CCN(CC(=O)O)CCN2CC(=O)O)cc1)C(=O)N[C@@H](CC(N)=O)C(=O)N[C@H](C(=O)NCC(=O)NCC(=O)N[C@H](C(=O)N[C@@H](Cc1ccc(O)cc1)C(=O)N[C@@H](Cc1ccccc1)C(=O)N[C@@H](CC(C)C)C(=O)N[C@H](C(=O)N[C@H](C(=O)N[C@@H](CCCNC(=N)N)C(=O)N[C@@H](CCC(N)=O)C(=O)O)[C@@H](C)O)[C@@H](C)O)[C@@H](C)O)C(C)C [fluorine-18 labelled] | radio-HPLC | mouse (HepG2 tumour-bearing), HepG2 tumour | intravenous, 5.55 MBq, 1 h | – | intact parent radiotracer | 93 ± 2.98%
CC(C)OC(=O)[C@H](CCC(=O)C=[N+]=[N-])NC(=O)OC(OC(=O)C(C)(C)C)c1ccccc1 (stereo partly drawn) | – | mouse plasma | 10 µM, 60 min, 37 °C | – | remaining compound | 0%
CC(C)=CCC/C(C)=C/CC/C(C)=C/COP(=O)(O)OP(=O)(O)OCc1ccccc1[N+](=O)[O-] | – | 25 mM NH4HCO3 | 0.1 mM, irradiation 350 nm | – | uncaging quantum efficiency | 0.7 mol/einstein
COc1cccc(N2CCN(C3=Nc4c(F)cccc4[C@H](CC(=O)O)N3c3cc(C(F)(F)F)ccc3OC)CC2)c1 | – | healthy women, plasma | intravenous infusion, 240 mg, day 1, single dose, 30-min infusion | – | volume of distribution | 193 ± 64.2 L
Oc1ccc(/C=C/c2cc(O)cc(O)c2)cc1 | in situ intestinal perfusion | Sprague-Dawley rat, ileum | 25 µg/mL, 120 min, pH 7.4 | – | effective permeability | 11.833 ± 0.000138 ×10⁻⁶ cm/s
O=C1N=C(N2CCOCC2)CN1c1ccc(Cl)cc1 | – | beagle dog, both sexes, plasma | oral, 30 mg/kg, tablets, fasted, day 0 | – | terminal half-life | 1.55 h
NC(=O)N1CCC(CC(=O)N2CCC([C@H]3c4ncc(Br)cc4CCc4cc(Cl)cc(Br)c43)CC2)CC1 | – | human, plasma | oral, 200 mg twice daily, cycle 1 day 15, with: gemcitabine 600 mg/m2 | – | AUC(tau) | 16800 ng·h/mL
COc1cc(CCC(C)=O)ccc1O | – | normal-weight male C57BL/6J mice, brain | oral, 200 mg/kg, 0 to 12 h, low-fat diet | – | AUC(0-t) | 2.2 ± 0.21 nmol·min/g
CCCOc1ccc([C@H]2CNC(=O)N2c2ccc3[nH]cnc3c2)cc1 | – | human volunteers fed, plasma | oral capsule, 1200 mg single dose, day 1, geometric mean | – | apparent terminal half-life | 7.47 h
CCCC[C@H](NC(C)=O)C(=O)N[C@H]1CCC(=O)NC[C@@H](C(=O)N[C@@H](Cc2c[nH]c3ccccc23)C(N)=O)NC(=O)[C@H](CCCNC(=N)N)NC(=O)[C@@H](Cc2ccccc2)NC(=O)[C@H](Cc2c[nH]cn2)NC1=O | – | CD Sprague-Dawley rat, male, plasma | subcutaneous, 1.0 mg/kg/day, day 28 | – | AUC(0-t) | 933 ng·h/mL
C=CC(=O)Nc1cc(Nc2ncc(C(=O)OC(C)C)c(-c3cn(C)c4ccccc34)n2)c(OC)cc1N(C)CCN(C)C | – | human, fasted | oral, 40 mg single dose, geometric mean | – | terminal half-life | 16 h
CC[C@H](C)[C@H](NC(=O)[C@H](Cc1ccccc1)NC(=O)[C@H](CCC(=O)O)NC(=O)[C@H](CCCCNC(=O)COCCOCCNC(=O)COCCOCCNC(=O)CC[C@H](NC(=O)CCCCCCCCCCCCCCCCC(=O)O)C(=O)O)NC(=O)[C@H](C)NC(=O)[C@H](C)NC(=O)[C@H](CCC(N)=O)NC(=O)CNC(=O)[C@H](CCC(=O)O)NC(=O)[C@H](CC(C)C)NC(=O)[C@H](Cc1ccc(O)cc1)NC(=O)[C@H](CO)NC(=O)[C@H](CO)NC(=O)[C@@H](NC(=O)[C@H](CC(=O)O)NC(=O)[C@H](CO)NC(=O)[C@@H](NC(=O)[C@H](Cc1ccccc1)NC(=O)[C@@H](NC(=O)CNC(=O)[C@H](CCC(=O)O)NC(=O)C(C)(C)NC(=O)[C@@H](N)Cc1cnc[nH]1)[C@@H](C)O)[C@@H](C)O)C(C)C)C(=O)N[C@@H](C)C(=O)N[C@@H](Cc1c[nH]c2ccccc12)C(=O)N[C@@H](CC(C)C)C(=O)N[C@H](C(=O)N[C@@H](CCCNC(=N)N)C(=O)NCC(=O)N[C@@H](CCCNC(=N)N)C(=O)NCC(=O)O)C(C)C | – | healthy Caucasian subjects, plasma | subcutaneous, once weekly | reference: 1.0 mg over 0.5 mg | accumulation ratio | 1
O=C(O)/C=C/c1ccc(O)c(O)c1 | UPLC-MS/MS | Wistar rat, microcirculation dysfunction model, plasma | oral, 100 mg/kg Salvia miltiorrhiza stem-leaf extract FS | – | CL/F | 6.5 ± 2 mL/min/kg
CC(C)NC[C@@H](C(=O)N1CCN(c2ncnc3c2[C@H](C)C[C@H]3O)CC1)c1ccc(Cl)cc1 | – | human, Moderate hepatic function (Child-Pugh), plasma | oral, 100 mg single dose, arithmetic mean | – | t1/2 | 83.1 h
